Measurements collected from several papers.
Each line is one published result; not all experiments were run side by side. “And” joins repeats or separate records; there may be more than shown. ± marks the error that the study gave.
GLP1R: Glucagon-like peptide 1 receptor (GLP1R, Homo sapiens, UniProt P43220)
Chain of UniProt Q9UM73 (whole entry, looked up): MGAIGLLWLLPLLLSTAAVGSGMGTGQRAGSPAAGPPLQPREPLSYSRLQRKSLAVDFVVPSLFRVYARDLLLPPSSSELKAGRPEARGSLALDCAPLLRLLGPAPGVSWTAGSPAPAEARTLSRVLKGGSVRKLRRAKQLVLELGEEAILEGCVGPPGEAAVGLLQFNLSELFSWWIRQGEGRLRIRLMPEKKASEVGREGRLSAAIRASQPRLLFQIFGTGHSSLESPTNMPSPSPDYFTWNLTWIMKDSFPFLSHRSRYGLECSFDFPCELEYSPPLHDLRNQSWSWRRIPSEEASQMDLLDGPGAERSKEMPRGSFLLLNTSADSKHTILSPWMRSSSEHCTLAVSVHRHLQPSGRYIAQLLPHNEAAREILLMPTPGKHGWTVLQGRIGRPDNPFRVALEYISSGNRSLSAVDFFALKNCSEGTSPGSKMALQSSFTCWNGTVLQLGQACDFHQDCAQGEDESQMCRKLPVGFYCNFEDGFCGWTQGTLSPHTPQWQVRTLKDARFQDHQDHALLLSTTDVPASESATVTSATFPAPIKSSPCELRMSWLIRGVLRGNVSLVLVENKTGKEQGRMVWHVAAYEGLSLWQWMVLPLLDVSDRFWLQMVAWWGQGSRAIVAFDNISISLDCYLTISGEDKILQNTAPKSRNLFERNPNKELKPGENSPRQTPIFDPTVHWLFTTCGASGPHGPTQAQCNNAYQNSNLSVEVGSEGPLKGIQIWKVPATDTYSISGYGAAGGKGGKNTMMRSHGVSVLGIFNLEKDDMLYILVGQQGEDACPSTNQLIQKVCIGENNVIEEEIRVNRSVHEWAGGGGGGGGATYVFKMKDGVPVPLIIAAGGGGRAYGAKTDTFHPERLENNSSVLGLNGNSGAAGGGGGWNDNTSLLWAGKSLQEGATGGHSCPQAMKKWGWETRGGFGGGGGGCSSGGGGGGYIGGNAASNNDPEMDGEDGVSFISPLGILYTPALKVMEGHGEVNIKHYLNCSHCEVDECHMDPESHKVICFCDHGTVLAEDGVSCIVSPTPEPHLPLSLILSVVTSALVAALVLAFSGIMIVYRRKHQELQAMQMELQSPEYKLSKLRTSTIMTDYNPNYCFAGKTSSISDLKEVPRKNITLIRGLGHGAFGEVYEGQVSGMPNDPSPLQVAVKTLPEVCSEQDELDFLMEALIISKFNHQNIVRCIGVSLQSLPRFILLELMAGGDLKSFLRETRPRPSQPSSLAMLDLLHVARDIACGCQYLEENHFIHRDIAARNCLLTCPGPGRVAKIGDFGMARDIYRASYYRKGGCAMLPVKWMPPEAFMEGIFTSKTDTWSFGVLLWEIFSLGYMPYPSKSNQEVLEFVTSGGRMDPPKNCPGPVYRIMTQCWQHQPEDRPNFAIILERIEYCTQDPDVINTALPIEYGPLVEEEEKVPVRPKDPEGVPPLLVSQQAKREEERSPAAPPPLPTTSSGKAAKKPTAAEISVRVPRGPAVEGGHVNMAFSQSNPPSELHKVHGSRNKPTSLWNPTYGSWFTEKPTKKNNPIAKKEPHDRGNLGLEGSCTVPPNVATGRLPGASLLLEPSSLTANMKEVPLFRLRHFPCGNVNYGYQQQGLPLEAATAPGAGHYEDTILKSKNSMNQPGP
Chain of UniProt Q9HC35 (whole entry, looked up): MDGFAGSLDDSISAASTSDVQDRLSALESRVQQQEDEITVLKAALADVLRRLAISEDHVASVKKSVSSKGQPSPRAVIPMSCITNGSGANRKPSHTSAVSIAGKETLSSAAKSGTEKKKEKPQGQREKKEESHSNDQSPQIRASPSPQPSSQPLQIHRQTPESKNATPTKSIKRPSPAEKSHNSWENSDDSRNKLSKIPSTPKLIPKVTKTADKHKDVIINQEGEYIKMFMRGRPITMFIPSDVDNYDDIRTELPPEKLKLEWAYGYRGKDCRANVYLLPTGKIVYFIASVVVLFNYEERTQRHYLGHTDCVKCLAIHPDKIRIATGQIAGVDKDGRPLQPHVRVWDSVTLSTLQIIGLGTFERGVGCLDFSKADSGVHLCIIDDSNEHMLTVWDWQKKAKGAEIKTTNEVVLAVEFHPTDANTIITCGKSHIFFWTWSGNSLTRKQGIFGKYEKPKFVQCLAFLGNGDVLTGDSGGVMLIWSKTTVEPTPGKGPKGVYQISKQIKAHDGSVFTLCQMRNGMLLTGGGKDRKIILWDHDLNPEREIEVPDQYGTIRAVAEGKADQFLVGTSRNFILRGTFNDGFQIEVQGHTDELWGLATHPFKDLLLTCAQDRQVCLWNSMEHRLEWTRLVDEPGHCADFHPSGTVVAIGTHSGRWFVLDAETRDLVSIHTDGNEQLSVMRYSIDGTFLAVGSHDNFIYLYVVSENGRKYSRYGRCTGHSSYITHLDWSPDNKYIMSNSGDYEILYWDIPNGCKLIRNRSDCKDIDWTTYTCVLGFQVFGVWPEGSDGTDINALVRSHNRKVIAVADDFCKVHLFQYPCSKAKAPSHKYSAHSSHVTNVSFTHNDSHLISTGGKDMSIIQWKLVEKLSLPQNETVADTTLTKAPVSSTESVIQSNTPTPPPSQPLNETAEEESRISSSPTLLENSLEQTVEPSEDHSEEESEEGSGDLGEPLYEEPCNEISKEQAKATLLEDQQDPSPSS
Chain of UniProt Q16774 (whole entry, unmodified, looked up): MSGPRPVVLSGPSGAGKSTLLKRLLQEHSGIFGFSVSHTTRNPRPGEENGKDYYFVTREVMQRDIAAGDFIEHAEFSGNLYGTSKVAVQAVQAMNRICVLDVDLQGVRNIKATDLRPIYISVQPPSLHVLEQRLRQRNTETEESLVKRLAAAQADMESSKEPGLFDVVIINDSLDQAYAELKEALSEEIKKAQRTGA
Chain of UniProt P11388 (whole entry, looked up): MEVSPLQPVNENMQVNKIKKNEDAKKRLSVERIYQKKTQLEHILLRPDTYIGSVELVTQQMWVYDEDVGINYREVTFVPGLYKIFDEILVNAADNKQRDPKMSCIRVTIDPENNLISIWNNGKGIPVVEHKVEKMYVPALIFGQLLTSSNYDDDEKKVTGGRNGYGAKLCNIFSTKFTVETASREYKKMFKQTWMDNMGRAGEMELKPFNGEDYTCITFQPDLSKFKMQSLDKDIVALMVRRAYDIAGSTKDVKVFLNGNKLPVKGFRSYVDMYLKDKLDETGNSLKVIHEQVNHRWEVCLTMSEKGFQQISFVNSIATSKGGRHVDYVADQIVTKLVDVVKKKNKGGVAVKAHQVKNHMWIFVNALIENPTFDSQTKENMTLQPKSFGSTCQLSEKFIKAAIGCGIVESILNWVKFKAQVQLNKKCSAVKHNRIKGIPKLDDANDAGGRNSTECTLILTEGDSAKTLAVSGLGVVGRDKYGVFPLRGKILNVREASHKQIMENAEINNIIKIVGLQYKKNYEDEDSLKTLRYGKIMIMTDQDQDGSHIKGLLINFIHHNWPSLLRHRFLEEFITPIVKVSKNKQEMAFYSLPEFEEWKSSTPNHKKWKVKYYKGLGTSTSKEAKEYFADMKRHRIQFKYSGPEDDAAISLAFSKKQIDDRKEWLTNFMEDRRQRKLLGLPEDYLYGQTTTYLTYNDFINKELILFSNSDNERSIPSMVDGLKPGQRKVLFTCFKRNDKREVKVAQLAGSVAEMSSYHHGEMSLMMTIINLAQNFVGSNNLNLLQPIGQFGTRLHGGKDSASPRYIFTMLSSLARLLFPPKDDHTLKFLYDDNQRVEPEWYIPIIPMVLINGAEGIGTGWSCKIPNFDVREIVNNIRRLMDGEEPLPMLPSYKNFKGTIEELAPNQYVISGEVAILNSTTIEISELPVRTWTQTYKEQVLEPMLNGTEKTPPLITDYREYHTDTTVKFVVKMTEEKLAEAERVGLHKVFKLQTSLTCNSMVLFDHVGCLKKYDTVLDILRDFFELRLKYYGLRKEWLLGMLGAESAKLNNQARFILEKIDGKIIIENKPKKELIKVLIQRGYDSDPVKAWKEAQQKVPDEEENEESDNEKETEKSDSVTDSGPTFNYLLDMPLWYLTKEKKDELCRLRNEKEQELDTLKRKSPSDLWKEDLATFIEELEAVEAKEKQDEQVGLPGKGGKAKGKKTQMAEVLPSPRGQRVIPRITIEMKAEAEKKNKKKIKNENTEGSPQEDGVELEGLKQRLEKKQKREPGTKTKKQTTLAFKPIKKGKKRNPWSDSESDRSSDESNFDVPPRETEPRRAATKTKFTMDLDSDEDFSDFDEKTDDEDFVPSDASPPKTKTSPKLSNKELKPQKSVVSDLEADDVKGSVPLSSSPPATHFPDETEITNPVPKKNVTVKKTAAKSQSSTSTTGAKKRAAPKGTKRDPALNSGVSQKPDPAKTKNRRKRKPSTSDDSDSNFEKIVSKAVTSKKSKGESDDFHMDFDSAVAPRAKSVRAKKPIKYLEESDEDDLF
Chain of UniProt Q8TBX8 (whole entry, looked up): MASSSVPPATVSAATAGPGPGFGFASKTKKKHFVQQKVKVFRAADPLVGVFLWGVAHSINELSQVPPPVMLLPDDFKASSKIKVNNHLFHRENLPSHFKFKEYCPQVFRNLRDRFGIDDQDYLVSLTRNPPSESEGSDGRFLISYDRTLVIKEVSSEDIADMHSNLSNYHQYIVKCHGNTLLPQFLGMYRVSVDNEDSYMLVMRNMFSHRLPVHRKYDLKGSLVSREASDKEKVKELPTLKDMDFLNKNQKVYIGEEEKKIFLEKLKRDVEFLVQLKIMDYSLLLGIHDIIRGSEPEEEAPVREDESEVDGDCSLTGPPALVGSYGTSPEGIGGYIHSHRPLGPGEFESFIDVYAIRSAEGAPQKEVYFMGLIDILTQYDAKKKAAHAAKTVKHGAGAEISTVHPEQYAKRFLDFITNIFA
Chain of UniProt P03146 (whole entry, looked up): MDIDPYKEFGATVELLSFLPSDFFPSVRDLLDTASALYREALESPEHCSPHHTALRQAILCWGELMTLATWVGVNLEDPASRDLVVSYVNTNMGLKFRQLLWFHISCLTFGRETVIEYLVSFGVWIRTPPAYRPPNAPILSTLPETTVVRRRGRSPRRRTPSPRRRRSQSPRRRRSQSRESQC

Under “fold potency loss”, `CC[C@H](C)[C@H](NC(=O)[C@H](Cc1ccccc1)NC(=O)[C@H](CCC(=O)O)NC(=O)[C@H](CCCNC(=N)N)NC(=O)[C@H](C)NC(=O)[C@H](C)NC(=O)[C@H](CCC(N)=O)NC(=O)[C@H](CCCCNc1c(NCCCCCN(O)C(=O)CCC(=O)NCCCCCN(O)C(=O)CCC(=O)NCCCCCN(O)C(C)=O)c(=O)c1=O)NC(=O)[C@H](CCC(=O)O)NC(=O)[C@H](CC(C)C)NC(=O)[C@H](Cc1ccc(O)cc1)NC(=O)[C@H](CO)NC(=O)[C@H](CO)NC(=O)[C@@H](NC(=O)[C@H](CC(=O)O)NC(=O)[C@H](CO)NC(=O)[C@@H](NC(=O)[C@H](Cc1ccccc1)NC(=O)[C@@H](NC(=O)CNC(=O)[C@H](CCC(=O)O)NC(=O)[C@H](C)NC(=O)CCc1cnc[nH]1)[C@@H](C)O)[C@@H](C)O)C(C)C)C(=O)N[C@@H](C)C(=O)N[C@@H](Cc1c[nH]c2ccccc12)C(=O)N[C@@H](CC(C)C)C(=O)N[C@H](C(=O)N[C@@H](CCCNC(=N)N)C(=O)NCC(=O)N[C@@H](CCCNC(=N)N)C(=O)N[C@@H](CCCCNC(=O)COCCOCCNC(=O)COCCOCCNC(=O)CC[C@H](NC(=O)CCCCCCCCCCCCCCCCC(=O)O)C(=O)O)C(=O)NCC(=O)NCC(=O)N[C@@H](CO)C(=O)N[C@@H](CCCCNc1c(NCCCCCN(O)C(=O)CCC(=O)NCCCCCN(O)C(=O)CCC(=O)NCCCCCN(O)C(C)=O)c(=O)c1=O)C(=O)O)C(C)C` is recorded as 10 (GLP1R; agonist, CRE luciferase reporter; BHK cells; metal-free DFO conjugate, together with: 0% HSA; baseline: parent peptide).
For `Oc1ccc(/C=C/c2cc(O)cc(O)c2)cc1`, “ΔG of binding” read -7.68 kcal/mol (O-methyltransferase (Sorghum bicolor, UniProt A0A1B6PFV1); isothermal titration calorimetry; concentration not given, apo protein).
The ΔH of `CC(C)C[C@@H]1NC(=O)CNC(=O)[C@H](CC(C)C)NC(=O)[C@@H]2CCCN2C(=O)[C@H](CC(=O)O)NC(=O)[C@H](Cc2ccc(O)cc2)NC(=O)CNC(=O)[C@@H](Cc2ccc(O)cc2)NC(=O)CSC[C@@H](C(N)=O)NC(=O)[C@H](C)NC(=O)[C@H](Cc2ccccc2)NC(=O)[C@H](Cc2ccc(O)cc2)NC(=O)[C@H](CCCCN)NC1=O` is reported as -17.4 ± 1.4 kcal/mol (Vacuolar protein sorting-associated protein 29 (VPS29, Homo sapiens, UniProt Q9UBQ0); binding, ITC; 25 °C, protein alone).
`CC(C)C[C@H](NC(=O)C[C@H](O)[C@H](CC(C)C)NC(=O)[C@H](Cc1c[nH]cn1)NC(=O)CNC(=O)[C@@H](NC(=O)[C@H](C)NC(=O)[C@H](Cc1c[nH]c2ccccc12)NC(=O)[C@H](CCC(N)=O)NC(=O)[C@@H](Cc1ccccc1)NC(=O)COCCOCCNC(=O)CCC(C(=O)O)N1CCN(CC(=O)O)CCN(CC(=O)O)CCN(CC(=O)O)CC1)C(C)C)C(N)=O` (some centres unmarked) [lutetium-177 labelled] gave a tissue uptake of 0.9 ± 0.3 %ID/g (female BALB/c nu/nu mice, stomach; intravenous, 100 pmol, 2 h, together with: PA 300 µg).
`COc1cc(N2CCC(N3CCN(C)CC3)CC2)ccc1Nc1ncc(Cl)c(Nc2ccccc2P(C)(C)=O)n1` gave a protein level of 1.02 and 1 and 1.05 (ALK tyrosine kinase receptor/Echinoderm microtubule-associated protein-like 4 (Homo sapiens, UniProt Q9HC35+Q9UM73); degrader, immunoblotting, measured: ALK tyrosine kinase receptor/Echinoderm microtubule-associated protein-like 4; Ba/F3 EML4-ALK; concentration not given, 12 h, unit not given; baseline: untreated).
`CC[C@H](C)[C@H](NC(=O)[C@H](Cc1ccccc1)NC(=O)[C@H](CCC(=O)O)NC(=O)[C@H](CCCNC(=N)N)NC(=O)[C@H](C)NC(=O)[C@H](C)NC(=O)[C@H](CCC(N)=O)NC(=O)[C@H](CCC(=O)O)NC(=O)[C@H](CCC(=O)O)NC(=O)[C@H](CC(C)C)NC(=O)[C@H](Cc1ccc(O)cc1)NC(=O)[C@H](CO)NC(=O)[C@H](CO)NC(=O)[C@@H](NC(=O)[C@H](CC(=O)O)NC(=O)[C@H](CO)NC(=O)[C@@H](NC(=O)[C@H](Cc1ccccc1)NC(=O)[C@@H](NC(=O)CNC(=O)[C@H](CCC(=O)O)NC(=O)[C@H](C)NC(=O)CCc1cnc[nH]1)[C@@H](C)O)[C@@H](C)O)C(C)C)C(=O)N[C@@H](C)C(=O)N[C@@H](Cc1c[nH]c2ccccc12)C(=O)N[C@@H](CC(C)C)C(=O)N[C@H](C(=O)N[C@@H](CCCNC(=N)N)C(=O)NCC(=O)N[C@@H](CCCNC(=N)N)C(=O)N[C@@H](CCCCNC(=O)COCCOCCNC(=O)COCCOCCNC(=O)CC[C@H](NC(=O)CCCCCCCCCCCCCCCCC(=O)O)C(=O)O)C(=O)NCC(=O)NCC(=O)N[C@@H](CO)C(=O)N[C@@H](CCCCNc1c(NCCCCCN(O)C(=O)CCC(=O)NCCCCCN(O)C(=O)CCC(=O)NCCCCCN(O)C(C)=O)c(=O)c1=O)C(=O)NCC(=O)NCC(=O)N[C@@H](CO)C(=O)N[C@@H](CCCCNc1c(NCCCCCN(O)C(=O)CCC(=O)NCCCCCN(O)C(=O)CCC(=O)NCCCCCN(O)C(C)=O)c(=O)c1=O)C(=O)NCC(=O)NCC(=O)N[C@@H](CO)C(=O)N[C@@H](CCCCNc1c(NCCCCCN(O)C(=O)CCC(=O)NCCCCCN(O)C(=O)CCC(=O)NCCCCCN(O)C(C)=O)c(=O)c1=O)C(=O)O)C(C)C` — result for “fold potency loss”: 4.9 (GLP1R; agonist, CRE luciferase reporter; BHK cells; metal-free DFO conjugate, together with: 1% HSA; baseline: parent peptide).
The koff of `Cc1nc2[nH]c(=O)n(O)c(=O)c2s1` is reported as 0.00126 s⁻¹ (Ketol-acid reductoisomerase (NADP(+)) (ilvC, Campylobacter jejuni subsp. jejuni serotype O:2, UniProt Q9PHN5); slow-binding inhibitor; Campylobacter jejuni).
`Nc1nc2c(ncn2[C@@H]2O[C@H](COP(=O)(O)O)[C@@H](O)[C@H]2O)c(=O)[nH]1` has a reaction rate of 0.031 s⁻¹ and 0.0452 s⁻¹ and -0.478 s⁻¹ (GUK1 (Homo sapiens, UniProt Q16774, R44A); enzyme activity, NADH-coupled; 125 µM).
With `CC1(C)CC2(C)OC(=O)NC2(C)c2ccccc21` (centres unmarked) the fold enrichment was 0.833 (Transcription intermediary factor 1-beta, PHD-bromodomain (TRIM28, Homo sapiens, UniProt Q13263); binding, affinity selection mass spectrometry; baseline: other proteins in batch).
With `O=C(O)CC[C@H](NC(=O)N[C@@H](CCCCNC(=O)CCCCCCC(=O)NCCCC[C@@H](NC(=O)[C@H](CCC(=O)O)NC(=O)[C@H](CCC(=O)O)NC(=O)CCC(=O)NCCCN1CC[S][Tc]2(=[O])[S]CC[N]2CC1)C(=O)O)C(=O)O)C(=O)O` (some centres unmarked) [technetium-99m labelled] the Bmax was 12 µmol/mg (Glutamate carboxypeptidase 2 (FOLH1, Homo sapiens, UniProt Q04609); saturation binding; LNCaP).
Under “log2 fold change”, `Cn1cc(-c2ccc(-c3cncc(Cl)c3N3CCC4(CCNC4=O)CC3)cc2)cn1` is recorded as -1.43 (COLO 205; gene expression, microarray, measured: KIAA0101 mRNA; concentration not given, 6 h; baseline: untreated cells).
`CCOC(=O)C1=C(CN2CCC[C@@H]2C(=O)Nc2cccc(B(O)O)c2)NC(c2nccs2)=N[C@H]1c1ccc(F)cc1Br`: “intracellular capsid protein level” “decreased” (Capsid protein (C, Hepatitis B virus genotype D subtype ayw, UniProt P03146); immunoblot; HepG2 expressing HA-HBc, Hepatitis B virus; concentration not given, 3 days, non-toxic concentrations).
`O=c1nc(SCc2cc(F)cc(C(F)(F)F)c2)nc(SCc2ccc3nc(OCCN4CCOCC4)ccc3c2)[nH]1` has a linear DNA of 0% (DNA topoisomerase 2-alpha (TOP2A, Homo sapiens, UniProt P11388); DNA cleavage; 125 µM, replicate 2).
`NCCCS(=O)(=O)O` — result for “normalised MST signal”: -0.0435 (Sodium- and chloride-dependent taurine transporter (SLC6A6, Homo sapiens, UniProt P31641, Y138A); binding, microscale thermophoresis; 30.5 nM, room temperature, together with: 50 nM labelled protein; higher = more binding).
The kcat of `Nc1ccc2c(O)c(N=Nc3ccc(N=Nc4ccc(N=Nc5cc(S(=O)(=O)[O-])c6cccc(S(=O)(=O)[O-])c6c5)c5ccccc45)c4ccc(S(=O)(=O)[O-])cc34)c(S(=O)(=O)[O-])cc2c1.[Na+].[Na+].[Na+].[Na+]` is reported as 0.81 s⁻¹ (alternative ancestral dye-decolorizing peroxidase; peroxidase activity, substrate, steady-state kinetics; 25 °C, pH 3 ABTS, 4 others).
The hepatic clearance of `O=C(Nc1ccc(C2CCCCC2)cc1)c1cn[nH]c1` is reported as 17 mL/min/kg (cryopreserved human hepatocytes; 1 µM).
For `CC[C@H](C)[C@H](NC(=O)[C@H](Cc1ccccc1)NC(=O)[C@H](CCC(=O)O)NC(=O)[C@H](CCCNC(=N)N)NC(=O)[C@H](C)NC(=O)[C@H](C)NC(=O)[C@H](CCC(N)=O)NC(=O)[C@H](CCC(=O)O)NC(=O)[C@H](CCC(=O)O)NC(=O)[C@H](CC(C)C)NC(=O)[C@H](Cc1ccc(O)cc1)NC(=O)[C@H](CO)NC(=O)[C@H](CO)NC(=O)[C@@H](NC(=O)[C@H](CC(=O)O)NC(=O)[C@H](CO)NC(=O)[C@@H](NC(=O)[C@H](Cc1ccccc1)NC(=O)[C@@H](NC(=O)CNC(=O)[C@H](CCC(=O)O)NC(=O)[C@H](C)NC(=O)CCc1cnc[nH]1)[C@@H](C)O)[C@@H](C)O)C(C)C)C(=O)N[C@@H](C)C(=O)N[C@@H](Cc1c[nH]c2ccccc12)C(=O)N[C@@H](CC(C)C)C(=O)N[C@H](C(=O)N[C@@H](CCCCNc1c(NCCCCCN(O)C(=O)CCC(=O)NCCCCCN(O)C(=O)CCC(=O)NCCCCCN(O)C(C)=O)c(=O)c1=O)C(=O)NCC(=O)N[C@@H](CCCNC(=N)N)C(=O)N[C@@H](CCCCNc1c(NCCCCCN(O)C(=O)CCC(=O)NCCCCCN(O)C(=O)CCC(=O)NCCCCCN(O)C(C)=O)c(=O)c1=O)C(=O)NCC(=O)NCC(=O)N[C@@H](CO)C(=O)N[C@@H](CCCCNC(=O)COCCOCCNC(=O)COCCOCCNC(=O)CC[C@H](NC(=O)CCCCCCCCCCCCCCCCC(=O)O)C(=O)O)C(=O)O)C(C)C`, “fold potency loss” read 3.7 (GLP1R; agonist, CRE luciferase reporter; BHK cells; metal-free DFO conjugate, together with: 1% HSA; baseline: parent peptide).
The Dmax of `Cc1ncsc1-c1ccc([C@H](C)NC(=O)[C@@H]2C[C@@H](O)CN2C(=O)[C@@H](NC(=O)CCCCCC(=O)N2CCC3(CC2)CCN(c2cncc(Nc4ncc(Cl)c(-c5cccc(-c6ccccc6)c5)n4)c2)C3=O)C(C)(C)C)cc1` is reported as 59% (Phosphatidylinositol 5-phosphate 4-kinase type-2 gamma (PIP4K2C, Homo sapiens, UniProt Q8TBX8); degrader, immunoblot; HAP1; 6 h).
For `O=C(NCC1CCOCC1)c1ccc([C@H]2[C@@H](F)[C@@H](F)C[C@@H](F)[C@H]2F)cc1`, the hepatic clearance was 31 mL/min/kg (hepatocyte stability; cryopreserved mouse hepatocytes; 1 µM).
`CCN1CCC[C@H]1CNC(=O)c1c(O)c(Cl)cc(Cl)c1OC`: “log2 fold change” 0.586 (Adhesion G-protein coupled receptor D1 (ADGRD1, Homo sapiens, UniProt Q6QNK2); β-arrestin recruitment, TANGO luminescence, measured: GPR133; concentration not given; baseline: basal luminescence).

Repeated from above:
The ΔH of `CC(C)C[C@@H]1NC(=O)CNC(=O)[C@H](CC(C)C)NC(=O)[C@@H]2CCCN2C(=O)[C@H](CC(=O)O)NC(=O)[C@H](Cc2ccc(O)cc2)NC(=O)CNC(=O)[C@@H](Cc2ccc(O)cc2)NC(=O)CSC[C@@H](C(N)=O)NC(=O)[C@H](C)NC(=O)[C@H](Cc2ccccc2)NC(=O)[C@H](Cc2ccc(O)cc2)NC(=O)[C@H](CCCCN)NC1=O` is reported as -17.4 ± 1.4 kcal/mol (Vacuolar protein sorting-associated protein 29 (VPS29, Homo sapiens, UniProt Q9UBQ0); binding, ITC; 25 °C, protein alone).
`CC(C)C[C@H](NC(=O)C[C@H](O)[C@H](CC(C)C)NC(=O)[C@H](Cc1c[nH]cn1)NC(=O)CNC(=O)[C@@H](NC(=O)[C@H](C)NC(=O)[C@H](Cc1c[nH]c2ccccc12)NC(=O)[C@H](CCC(N)=O)NC(=O)[C@@H](Cc1ccccc1)NC(=O)COCCOCCNC(=O)CCC(C(=O)O)N1CCN(CC(=O)O)CCN(CC(=O)O)CCN(CC(=O)O)CC1)C(C)C)C(N)=O` (some centres unmarked) [lutetium-177 labelled] gave a tissue uptake of 0.9 ± 0.3 %ID/g (female BALB/c nu/nu mice, stomach; intravenous, 100 pmol, 2 h, together with: PA 300 µg).
